Experimental data collected from several papers.
Compare with care: the assays were run in different laboratories.
PIK3CA with p85 alpha: Phosphatidylinositol 4,5-bisphosphate 3-kinase catalytic subunit alpha isoform, with p85 alpha (PIK3CA, Homo sapiens, UniProt P42336)
Chain of UniProt P42336 (whole entry, unmodified, looked up): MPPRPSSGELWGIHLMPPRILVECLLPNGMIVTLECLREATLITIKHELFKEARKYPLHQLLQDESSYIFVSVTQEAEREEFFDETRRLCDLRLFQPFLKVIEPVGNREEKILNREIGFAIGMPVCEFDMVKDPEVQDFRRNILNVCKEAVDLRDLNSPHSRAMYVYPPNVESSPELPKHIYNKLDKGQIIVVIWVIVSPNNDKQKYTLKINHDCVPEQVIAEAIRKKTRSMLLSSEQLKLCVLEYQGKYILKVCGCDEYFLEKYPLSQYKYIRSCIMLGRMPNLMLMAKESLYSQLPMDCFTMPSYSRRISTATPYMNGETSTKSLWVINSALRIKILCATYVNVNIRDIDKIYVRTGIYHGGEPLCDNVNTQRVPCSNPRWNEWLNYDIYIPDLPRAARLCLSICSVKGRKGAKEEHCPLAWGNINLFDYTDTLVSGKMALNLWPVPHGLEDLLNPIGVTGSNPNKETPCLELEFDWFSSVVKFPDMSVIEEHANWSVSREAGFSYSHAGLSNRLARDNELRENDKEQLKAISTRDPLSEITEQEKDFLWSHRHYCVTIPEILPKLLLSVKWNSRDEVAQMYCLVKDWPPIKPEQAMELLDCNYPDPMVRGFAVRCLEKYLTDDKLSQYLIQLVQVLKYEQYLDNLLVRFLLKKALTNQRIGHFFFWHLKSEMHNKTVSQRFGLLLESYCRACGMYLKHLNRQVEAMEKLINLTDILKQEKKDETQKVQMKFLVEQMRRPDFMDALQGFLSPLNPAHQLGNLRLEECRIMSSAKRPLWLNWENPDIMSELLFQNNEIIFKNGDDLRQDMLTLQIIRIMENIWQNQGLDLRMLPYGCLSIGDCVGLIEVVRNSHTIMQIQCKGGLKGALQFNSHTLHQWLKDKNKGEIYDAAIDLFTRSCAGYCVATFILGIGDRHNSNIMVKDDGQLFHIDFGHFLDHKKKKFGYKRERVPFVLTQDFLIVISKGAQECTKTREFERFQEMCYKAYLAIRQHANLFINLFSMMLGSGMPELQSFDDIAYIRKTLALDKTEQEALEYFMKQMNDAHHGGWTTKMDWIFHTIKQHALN
UCHL1: Ubiquitin carboxyl-terminal hydrolase isozyme L1 (UCHL1, Homo sapiens, UniProt P09936)
Chain of UniProt P09936 (whole entry, looked up): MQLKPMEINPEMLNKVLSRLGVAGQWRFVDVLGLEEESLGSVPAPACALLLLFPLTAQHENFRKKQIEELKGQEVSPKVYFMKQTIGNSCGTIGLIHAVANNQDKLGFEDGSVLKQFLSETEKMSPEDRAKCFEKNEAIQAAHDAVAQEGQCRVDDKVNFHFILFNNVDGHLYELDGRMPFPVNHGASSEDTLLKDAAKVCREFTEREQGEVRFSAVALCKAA

| SMILES | target | assay | setting | scale | quantity | result |
| --- | --- | --- | --- | --- | --- | --- |
| COc1cc(-c2cncc3c2CN(C)Cc2cc(N4CCNCC4)ccc2-3)cc(OC)c1OC | Phosphatidylinositol 4,5-bisphosphate 3-kinase catalytic subunit alpha isoform, with p85 alpha (PIK3CA, Homo sapiens, UniProt P42336, E542K) | kinase activity | 1 µM, p110a(E542K)/p85a)(h human, added: ATP 10 µM | reference: DMSO | remaining activity | 100% |
| O=C(NC1CCC1)c1ccc2nc(-c3cccc(NS(=O)(=O)NCCN4CCCCC4)c3)cn2c1 | PIK3CA (Homo sapiens, UniProt P42336, E545A) | enzyme activity | 10 µM |  | remaining activity | 100% |
| CN1CC(Oc2cnc(C#N)cc2-c2ccn3nc(NC(=O)C4CC4)cc3c2)C1 | PIK3CA with p85 alpha | inhibitor, KinaseProfiler panel | 1 µM |  | inhibition | 0% |
| COc1cc(Cl)c(C(=O)N[C@@H](CN[C@H]2CC[C@@H](N)CC2)Cc2ccc(C#N)cc2)cc1-c1ccc(CN[C@H](C)c2ccc(C)cc2)o1 | PIK3CA with p85 alpha | enzyme activity, KinaseProfiler panel | 1 µM |  | remaining activity | 96% |
| CS(=O)(=O)Nc1cccc(-c2csc(NC(=O)CSc3nc4nccnc4c(=O)n3CCc3ccccc3)n2)c1 | PIK3CA with p85 alpha | kinase activity, inhibitor | 10 µM, added: PIK3R1 complex |  | inhibition | 9% |
| Cc1ccc(NC(=O)c2ccc(C)c(C(F)(F)F)c2)cc1C#Cc1nn(C2CCC(O)CC2)c2ncnc(N)c12 (centres unmarked) | PIK3CA with p85 alpha | enzyme activity, inhibitor | 10 µM, p110a/p85a)(h human, added: ATP 10 µM |  | remaining activity | 79% |
| O=C(CCl)N1N=C(c2cccc(F)c2)CC1c1cccs1 (centres unmarked) | UCHL1 | covalent, intact protein LC-MS | 12.5 µM |  | labelling | 19.7% |
| Cc1nc(NC(=O)N2CCCC2)sc1-c1csc(C(C)(C)C)n1 | PIK3CA (Homo sapiens, UniProt P42336, I771A) | enzyme activity | 3 µM |  | inhibition | 17% |
| [2H]c1cc(C)c(NC(=O)c2cnc(Nc3cc(N4CCC(O)CC4)nc(C)n3)s2)c(Cl)c1 | Phosphatidylinositol 4,5-bisphosphate 3-kinase catalytic subunit alpha isoform, with PIK3R1 (PIK3CA, Homo sapiens, UniProt P42336) |  | 0.001 µM |  | inhibition | < 50% |
| C=CC(=O)N1CCC(COCC(=O)N2CCN(c3nc(-c4cnc(N)nc4C(F)F)nc(N4CCOC[C@@H]4C)n3)CC2)CC1 | PIK3CA (Homo sapiens, UniProt P42336, E545K) | KINOMEscan | 1 µM |  | remaining binding | 0% |
| O=C(CSc1nc2nccnc2c(=O)n1CCc1ccccc1)Nc1nccs1 | PIK3CA with p85 alpha | kinase activity, inhibitor | 10 µM, added: PIK3R1 complex |  | inhibition | 27% |
| CN(C)C1CCN(CC#Cc2nn(C3CCCC3)c3nc(NCc4ccccc4)ncc23)C1 (centres unmarked) | PIK3CA with p85 alpha | enzyme activity, inhibitor, Z'-LYTE | 1000 nM |  | inhibition | 4% |
| O=C(CCl)c1c(-c2ccccc2)[nH]c2ccccc12 | UCHL1 | covalent, intact protein LC-MS | 12.5 µM |  | labelling | 57.6% |
| Cc1ccc(C(=O)NCc2ccsc2)cc1C#Cc1cn(C(C)C)c2ncnc(N)c12 | Phosphatidylinositol 4,5-bisphosphate 3-kinase catalytic subunit alpha isoform, with p65 alpha (PIK3CA, Homo sapiens, UniProt P42336) | kinase activity | 1 µM, added: ATP at Km |  | remaining activity | 100% |
